Experimental data gathered from unrelated publications.
Protocols differ between the studies behind these lines. ± gives the spread as reported.
Nuclear receptor subfamily 2 group C member 2 ligand-binding domain: Nuclear receptor subfamily 2 group C member 2, ligand-binding domain (Homo sapiens, UniProt P49116)
UniProt P49116, sequence (whole entry, looked up): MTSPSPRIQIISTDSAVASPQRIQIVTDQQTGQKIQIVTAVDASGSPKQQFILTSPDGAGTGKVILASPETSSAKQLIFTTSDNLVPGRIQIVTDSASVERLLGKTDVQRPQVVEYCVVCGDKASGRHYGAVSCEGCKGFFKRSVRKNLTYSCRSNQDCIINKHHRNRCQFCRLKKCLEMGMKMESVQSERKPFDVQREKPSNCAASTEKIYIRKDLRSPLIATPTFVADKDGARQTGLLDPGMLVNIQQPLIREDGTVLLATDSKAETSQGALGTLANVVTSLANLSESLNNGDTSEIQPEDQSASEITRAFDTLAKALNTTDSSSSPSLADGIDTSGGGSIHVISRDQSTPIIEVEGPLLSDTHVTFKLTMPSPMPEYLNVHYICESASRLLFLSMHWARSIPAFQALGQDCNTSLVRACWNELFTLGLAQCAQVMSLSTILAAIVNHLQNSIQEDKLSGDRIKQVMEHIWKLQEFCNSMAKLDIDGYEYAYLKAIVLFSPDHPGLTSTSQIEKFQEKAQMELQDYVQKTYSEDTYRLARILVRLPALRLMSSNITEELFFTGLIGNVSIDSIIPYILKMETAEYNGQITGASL

Under “R/S enantiomer ratio”, `COc1ccc2nc([S+]([O-])Cc3ncc(CO)c(OC)c3C)[nH]c2c1` (centres unmarked) is recorded as 3.38 (human, dried plasma spots; 4 h, added: fluvoxamine and voriconazole).
`CC[C@H](C)[C@H](NC(=O)[C@H](Cc1ccccc1)NC(=O)[C@H](CCC(=O)O)NC(=O)[C@H](CCCCNC(=O)COCCOCCNC(=O)COCCOCCNC(=O)CC[C@H](NC(=O)CCCCCCCCCCCCCCCCC(=O)O)C(=O)O)NC(=O)[C@H](C)NC(=O)[C@H](C)NC(=O)[C@H](CCC(N)=O)NC(=O)CNC(=O)[C@H](CCC(=O)O)NC(=O)[C@H](CC(C)C)NC(=O)[C@H](Cc1ccc(O)cc1)NC(=O)[C@H](CO)NC(=O)[C@H](CO)NC(=O)[C@@H](NC(=O)[C@H](CC(=O)O)NC(=O)[C@H](CO)NC(=O)[C@@H](NC(=O)[C@H](Cc1ccccc1)NC(=O)[C@@H](NC(=O)CNC(=O)[C@H](CCC(=O)O)NC(=O)C(C)(C)NC(=O)[C@@H](N)Cc1cnc[nH]1)[C@@H](C)O)[C@@H](C)O)C(C)C)C(=O)N[C@@H](C)C(=O)N[C@@H](Cc1c[nH]c2ccccc12)C(=O)N[C@@H](CC(C)C)C(=O)N[C@H](C(=O)N[C@@H](CCCNC(=N)N)C(=O)NCC(=O)N[C@@H](CCCNC(=N)N)C(=O)NCC(=O)O)C(C)C`: “systolic blood pressure difference” 0.2 mm Hg (type 2 diabetes patients; dose not given, hypoglycaemic clamp, nadir PG 5.5 mmol/L; reference: placebo).
`C[C@]12CCC(=O)C=C1CC[C@@H]1[C@@H]2[C@@H](O)C[C@@]2(C)[C@H]1CC[C@]2(O)C(=O)CO` gave a Kd of 5.69 nM (Nuclear receptor subfamily 2 group C member 2 ligand-binding domain; SPR imaging).
`O=Cc1ccc(O)cc1` has a plasma concentration of 1660 nM (human plasma; median, both sexes).
`CC(C)(C(=O)N1CCOc2c(C#N)cncc2C1)C(F)F`: “subjects with adverse event” 12.5% (item: Psychiatric disorders; human; oral, 20 mg twice daily, 14 days, multiple ascending dose).
`CO[C@H]1C[C@@H]2CC[C@@H](C)[C@@](O)(O2)C(=O)C(=O)N2CCCC[C@H]2C(=O)O[C@H]([C@H](C)C[C@@H]2CC[C@@H](O)[C@H](OC)C2)CC(=O)[C@H](C)/C=C(\C)[C@@H](O)[C@@H](OC)C(=O)[C@H](C)C[C@H](C)/C=C/C=C/C=C/1C` gave a heart rate of 37 ± 5.2 beats/min (healthy adult horses; intravenous, 0.06 mg/kg, 0 h).
`Cc1cc(Nc2cc3ncccc3c(N[C@@H]3C[C@H]4CC[C@@H](C3)N4CCC#N)n2)n[nH]1` gave a sneezing incidence of 17% (healthy human subjects; oral, 100 mg, 14 days, multiple ascending dose).
`Cc1cc(C)c(CNC(=O)c2cc(Cl)c3c(c2C)O[C@@](C)([C@H]2CC[C@H](N(C)C)CC2)O3)c(=O)[nH]1` has an AUCtau (total) of 18100 ng·h/mL (human, plasma; oral, 200 mg, cycle 1 day 1, mean, tau 24 h).
The amount permeated of `C[C@H]1[C@H](NC(=O)/C(=N\OC(C)(C)C(=O)O)c2csc(N)n2)C(=O)N1S(=O)(=O)O` is reported as 3.1 nmol (starch gel membrane permeability; Gram-negative envelope surrogate; 200 µM, 45 min, pH 7.4).
For `Cc1cn([C@@H]2O[C@H](CO)[C@@H](O)[C@H]2O)c(=O)nc1N`, the viability was 98.4% (OCI-Ly1; 1 µM, 120 h).
`Cn1nc2c(=O)n(C3CC3)ccc2c1[C@](O)(c1cnc(C(F)(F)F)c(Cl)c1)C(F)(F)F` gave a CL of 1.81 ± 0.17 mL/min/kg (rat Sprague-Dawley male, plasma; intravenous, 1 mg/kg).
`O=C(O)c1ccc(OS(=O)(=O)O)c(O)c1` gave a plasma concentration of 105 nM (human plasma; median).
For `O=c1oc2c(O)c(O)cc3c(=O)oc4c(O)c(O)cc1c4c23`, the viability was 79.6% (OCI-Ly1; 1 µM, 120 h).
With `N#Cc1ccc2c(c1)[C@H]1CCCN(C(=O)c3ccc4[nH]cnc4c3)[C@H]1C2` the DHEA-S level was 8.6 µmol/L (human, female; 80 mg, day 7).
For `CC[C@H]1OC(=O)[C@H](C)[C@@H](O[C@H]2C[C@@](C)(OC)[C@@H](O)[C@H](C)O2)[C@H](C)[C@@H](O[C@@H]2O[C@H](C)C[C@H](N(C)C)[C@H]2O)[C@](C)(O)C[C@@H](C)C(=O)[C@H](C)[C@@H](O)[C@]1(C)O`, the amount permeated was 1.91 nmol (starch gel membrane permeability; Gram-negative envelope surrogate; 200 µM, 90 min, pH 7.4).
`OC[C@H]1OC(O)[C@H](O)[C@@H](O)[C@@H]1O` (some centres unmarked) has a Kd of 0.0274 nM (Nuclear receptor subfamily 2 group C member 2 ligand-binding domain; SPR imaging).
`Cc1ccc(=O)n(-c2ccccc2)c1` gave a median Tmax of 40.2 min (healthy volunteers, plasma; oral, 600 mg single dose, alone).
`CNc1ccc(-c2nc3ccc(O)cc3s2)cc1` [carbon-11 labelled] has an SUV of 0.911 ± 0.217 (ex vivo biodistribution; B6SJL mouse, normal, pancreas; intravenous, 30 min).
With `Cc1nc2cccc(OCC(C)(C)C(=O)NC(C)C)c2c(N)c1C(=O)O` the AUC(0-last) ratio was 1.94 ± 0.93 (Sprague-Dawley rat, plasma; oral, 100 mg/kg, day 1; reference: female over male).
For `CCCCCCCCOc1ccc(C(=O)c2ccccc2)c(O)c1`, “amount in receptor fluid” read “not detected” (EpiSkin reconstructed epidermis; concentration not given, 36 h).
The concentration of `O=C(N[C@H](Cc1c[nH]c2ccccc12)C(=O)Nc1ccncc1)c1ccc(-c2ccc(F)c(C(F)(F)F)c2)cc1F` is reported as 4190 nM (Swiss Webster mouse, female, heart; oral, 50 mg/kg, 2 h, 20% HPβCD vehicle).
For `O=c1c2ccccc2oc2ccccc12`, the solubility was 0.104 mole fraction (tricaprin-tricaprylin mixture; 75 °C, tricaprin fraction 0.56).
`O=C(O)c1ccc(O)cc1O` gave a plasma concentration of 10500 nM (human plasma; median, both sexes).

Repeated from above:
For `CCCCCCCCOc1ccc(C(=O)c2ccccc2)c(O)c1`, “amount in receptor fluid” read “not detected” (EpiSkin reconstructed epidermis; concentration not given, 36 h).
`Cc1ccc(=O)n(-c2ccccc2)c1` gave a median Tmax of 40.2 min (healthy volunteers, plasma; oral, 600 mg single dose, alone).
The amount permeated of `C[C@H]1[C@H](NC(=O)/C(=N\OC(C)(C)C(=O)O)c2csc(N)n2)C(=O)N1S(=O)(=O)O` is reported as 3.1 nmol (starch gel membrane permeability; Gram-negative envelope surrogate; 200 µM, 45 min, pH 7.4).
